Measured values of several laboratories.
Each line is one published result; not all experiments were run side by side. “And” joins repeats or separate records; there may be more than shown. Numbers after ± are the reported error.
ESR1: Estrogen receptor (ESR1, Homo sapiens, UniProt P03372)
CASP4: Caspase-4 (CASP4, Homo sapiens, UniProt P49662)
Fibroblast growth factor 2 with pentraxin 3: Fibroblast growth factor 2, with pentraxin 3 (Homo sapiens, UniProt P09038)
Nr3c1: Glucocorticoid receptor (Nr3c1, Rattus norvegicus, UniProt P06536)
F10: Coagulation factor X (F10, Bos taurus, UniProt P00743)
APP: Amyloid-beta precursor protein (APP, Homo sapiens, UniProt P05067)

CC(NC(=O)CCCc1ccc2ccc3cccc4ccc1c2c34)C(=O)NO (stereo not drawn)  protons released on binding (HDAC8 (Homo sapiens, UniProt Q9BY41); ITC in four buffers; concentration not given, pH 7.5): 0.08 ± 0.03 protons per ligand
CCn1c2ccccc2c2cc(NC(=O)c3ccccc3-c3ccccc3C(=O)O)ccc21  change in inhibition with detergent (galE (Trypanosoma brucei, UniProt Q8T8E9); enzyme activity, inhibitor, HPAEC; 30 µM, added: UDP-galactose substrate, 0.06% n-octylglucopyranoside): no effect
ASAQDGRCPCGARRPDSR (LAGE-1 (69-86); sequence looked up)  relative IC50 (HLA-DPB1*0401; peptide binding, biotinylated peptide competition; peptide; baseline: peptide over reference peptide, lower = stronger binding): > 7300
NC(=O)/C(=C/n1cnc(-c2cc(C(F)(F)F)cc(C(F)(F)F)c2)n1)c1cncnc1  concentration for complete inhibition (Exportin-1 (CRM1, Saccharomyces cerevisiae, UniProt P30822, del377-413/T539C); NES binding, pull-down; 90 min, 4 °C, added: 2 µM protein, 10 µM RanGTP): 10 to 20 µM
O=S(=O)(O)c1cc(N=C=S)ccc1CCc1ccc(N=C=S)cc1S(=O)(=O)O  ID50 (SLC4A1 (Homo sapiens, UniProt P02730); chloride exchange; human red blood cells; pH 9.0, 0 °C, pH-induced inward chloride gradient, added: external chloride 60 mM): 0.72 µM and 0.3 µM and 0.4 µM and 0.41 µM
Ac-GPSLNPFDEED-NH2 (N-acetyl, C-amide)  TΔS (EHD1 EH domain, mouse; ITC; peptide; pH 7.0, 20 °C, 0 mM KCl, second titration): -3400 cal/mol
C=CCNC1=C2C[C@@H](C)C[C@H](OC)[C@H](O)[C@@H](C)/C=C(\C)[C@H](OC(N)=O)[C@@H](OC)/C=C\C=C(/C)C(=O)NC(=CC1=O)C2=O  OHT-induced ER degradation (ESR1; western blot; MCF7; 1 µM, 0.5 h pretreatment, added: 1 µM 4-hydroxytamoxifen 5.5 h): inhibited
Cc1ccc2c(c1)sc(-c1ccc(N(C)C)cc1)[n+]2C  fluorescence increase (Insulin, fibrils (INS, Bos taurus, UniProt P01317); amyloid fibrils; 1 µM; baseline: pH 3.0 over pH 7.5): 57.1 fold
Nc1nc2c(ncn2[C@@H]2O[C@@H]3COP(=O)(O)O[C@H]3[C@H]2O)c(=O)[nH]1  relative maximal current (Cnga2 (Rattus norvegicus, UniProt Q00195, E583M); ion current, agonist, inside-out patch clamp; E583M channel, +50 mV; baseline: cAMP at saturation): 0.4 ± 0.1
Cc1ccc(C)c(OCCCC(C)(C)C(=O)O)c1  remaining activity (CASP4; 33 µM, added: LEHD substrate; baseline: solvent control): 23.8%
ASLDELQREIEQLEELNYALQKEIEDLQKQGAP  binding stoichiometry (Transcription factor Jun (Homo sapiens, UniProt P05412, S292Y); isothermal titration calorimetry; peptide; concentration not given, pH 7, 20 °C): 1.05 ± 0.01
Ac-ARGCA-NH2 (N-acetyl, C-amide)  ID50 (Fibroblast growth factor 2 with pentraxin 3; binding to PTX3, competitor, surface plasmon resonance; peptide; added: 150 nM free FGF2): 1500 µM
CC(C)Cc1nn(C)c(=O)c2c(SCCCO)n(Cc3cccc4ccccc34)cc12  lactate uptake (Monocarboxylate transporter 1 (Slc16a1, Mus musculus, UniProt P53986); inhibitor; MCF7 expressing Slc16a1; added: 14C-lactate): inhibited
DDEPIYIEFDAHN  kcat/Km fold change (CSK (Homo sapiens, UniProt P41240); substrate; peptide; concentration not given; baseline: Glu or Asp Y-1 parent peptide): 4.5 fold
Cn1c(=O)c2[nH]c(Cc3ccccc3)nc2n(C)c1=O  remaining activity (Nr3c1; reporter gene, antagonist, MMTV-luciferase; T47D/A1-2; 10 µM, 24 h, added: 5 nM dexamethasone; baseline: maximal activity): 117%
CC[C@H](C)[C@H](NC(=O)[C@H](CC(C)C)NC(=O)[C@H](CC(C)C)NC(=O)CNC(=O)[C@H](Cc1ccc(O)cc1)NC(=O)[C@H](CCCNC(=N)N)NC(=O)[C@H](CO)NC(C)=O)C(=O)N[C@@H](CCCCN)C(=O)N[C@@H](C)C(=O)N[C@@H](Cc1ccccc1)C(=O)N[C@@H](CO)C(=O)N[C@@H](CCSC)C(=O)N[C@H](C(=O)N[C@@H](C)C(=O)N[C@@H](C)C(=O)N[C@@H](CCC(=O)O)C(=O)N[C@H](C(=O)N[C@@H](C)C(=O)N[C@@H](CCCNC(=N)N)C(=O)N[C@@H](CCCNC(=N)N)C(=O)N[C@H](C(=O)N[C@@H](CCCNC(=N)N)C(=O)N[C@@H](CCC(=O)O)C(=O)N[C@@H](Cc1ccccc1)C(=O)N[C@@H](CCCNC(=N)N)C(N)=O)[C@@H](C)O)[C@@H](C)O)[C@@H](C)O  apparent ΔG1 (calmodulin 1-80 sites I and II; calcium binding, Phe fluorescence titration; 12 µM, pH 7.4, 22 °C, added: 6 µM calmodulin): -6.25 ± 0.33 kcal/mol
CNLM  farnesylation rate constant (Protein farnesyltransferase (Rattus norvegicus, UniProt Q02293+Q04631); substrate, stopped-flow fluorescence; peptide; pH 7.8, 25 °C, single turnover): 3.1 ± 0.3 s⁻¹
COc1ccc(-n2nc(C(N)=O)c3c2C(=O)N(c2ccc(N4CCCCC4=O)cc2)CC3)cc1  PK-PD slope (F10; anti-factor Xa activity; human, plasma): 0.0159 IU/ng
CN(Cc1cnc2nc(N)nc(N)c2n1)c1ccc(C(=O)N[C@@H](CCC(=O)O)C(=O)O)cc1  Vmax (SLC19A1 (Homo sapiens, UniProt P41440, S313A); transport, substrate; K562 transfected (K500E); 180 s, 37 °C): 0.5 ± 0.04 pmol/mg protein/min
CCc1nc2c([nH]1)c(=O)n(C)c(=O)n2C  remaining activity (Nr3c1; reporter gene, antagonist, MMTV-luciferase; T47D/A1-2; 10 µM, 24 h, added: 5 nM dexamethasone; baseline: maximal activity): 120%
CC[S+]([O-])c1nc(-c2cccc(OCc3ccccc3)c2)cc(C(F)(F)F)n1 (stereo not drawn)  cAMP accumulation (GLP1R (Homo sapiens, UniProt P43220); positive allosteric modulator; HEK293T overexpressing target; 12.5 µM, added: GLP-1(9-36); baseline: peptide agonist): > 100%
CN(c1ccccc1)S(=O)(=O)C1CC2OC1C(c1ccc(O)cc1)=C2c1ccc(O)cc1 (stereo not drawn)  efficacy (ESR1; reporter gene, antagonist; HepG2; added: estradiol 10 nM; baseline: E2 response, negative is inverse agonism): 56 ± 2%
COc1cc(/C=C/C(=O)CC(=O)/C=C/c2ccc(O)c(OC)c2)ccc1O  band density (APP; Aβ aggregation, SDS-PAGE western blot, item: Aβ1-42 75-200 kDa band; 30 µM, 24 h, 37 °C, added: Aβ1-42 10 µM; baseline: DMSO): 414 ± 64%
CC1(C)[C@@H](OC(=O)CCC(=O)O)CC[C@]2(C)[C@H]3C(=O)C=C4[C@@H]5C[C@@](C)(C(=O)O)CC[C@]5(C)CC[C@@]4(C)[C@]3(C)CC[C@@H]12  ATP release (GJA1 (Homo sapiens, UniProt P17302); hemichannel ATP release; ARPE-19; 100 µM, added: low calcium 35 min; baseline: untreated): decreased
CC1=C(C(=O)O)N2C(=O)[C@@H](NC(=O)[C@H](N)c3ccc(O)cc3)[C@H]2SC1  apparent Vmax (Slc15a1 (Mus musculus, UniProt Q9JIP7); intestinal uptake; wild-type mouse, jejunum; 0.01 to 25 mM, pH 6.5): 4.8 ± 0.4 nmol/cm²/s
CC[C@H](C)[C@H](NC(=O)[C@H](CCCCN)NC(=O)[C@H](CC(C)C)NC(=O)[C@H](CC(C)C)NC(=O)[C@@H]1CCCN1C(=O)[C@H](CC(C)C)NC(=O)[C@H](CCCCN)NC(=O)[C@@H]1CCCN1C(=O)[C@H](CCCNC(=N)N)NC(=O)[C@@H](NC(=O)[C@H](CCC(N)=O)NC(=O)[C@H](CC(N)=O)NC(C)=O)C(C)C)C(=O)N[C@@H](CC(C)C)C(=O)N[C@@H](Cc1c[nH]cn1)C(=O)N[C@@H](C)C(=O)N[C@@H](C)C(=O)NCC(=O)N[C@@H](C)C(=O)N[C@@H](CCC(N)=O)C(=O)N[C@@H](Cc1ccc(O)cc1)C(N)=O  koff (Protein S100-B (Homo sapiens, UniProt P04271); binding, NMR line shape, NMR only; 35 °C, low salt): 10 ± 2 s⁻¹
Ac-APCRA-NH2 (N-acetyl, C-amide)  ID50 (Fibroblast growth factor 2 with pentraxin 3; binding to PTX3, competitor, surface plasmon resonance; peptide; added: 150 nM free FGF2): 800 µM
Cc1cnc(-c2ccnc(C(C)(C)O)n2)cc1-n1c(C)cc(OCc2ncc(F)cc2F)c(Cl)c1=O  complex half-life increase (p38α–MK2 complex; binding, surface plasmon resonance; added: 10 nM p38α; baseline: CDD-110): 4 fold
O=Cc1ccc(O)cc1  lowest inhibitory concentration (UGT (rat); 4-MU glucuronidation, inhibitor; rat liver microsomes): ≥ 1 µM
CN(C)CCOc1ccc([C@H]2C[C@]3(C)[C@@H](O)CC[C@H]3[C@@H]3CCc4cc(O)ccc4[C@H]32)cc1  relative binding affinity (Estrogen receptor, ligand-binding domain (ESR1, Homo sapiens, UniProt P03372); radioligand competition; concentration not given, overnight, room temperature, ligand-binding domain, added: [3H]estradiol; baseline: estradiol): 26 to 39%
Cc1c(C)c2c(c(C)c1O)CCC(C)(C(=O)O)O2 (stereo not drawn)  protection of complex I/III activity (NADH:cytochrome c oxidoreductase, rat; lysed brain mitochondria; 1 mM, added: dopamine 200 µM plus tyrosinase): no effect
S=c1nc(C2CC2)[nH]c2ccccc12  inhibition fold change (SMPD1 (Homo sapiens, UniProt P17405); inhibitor; concentration not given, pH 5.0; baseline: HMU-PC over sphingomyelin substrate): 5 fold
O=C(c1ccccc1)c1ccc2n1CCC2C(=O)O (stereo not drawn)  remaining activity (CASP4; 33 µM, added: LEHD substrate; baseline: solvent control): 4.09%
CCCCc1nc2c([nH]1)c(=O)n(C)c(=O)n2C  remaining activity (Nr3c1; reporter gene, antagonist, MMTV-luciferase; T47D/A1-2; 10 µM, 24 h, added: 5 nM dexamethasone; baseline: maximal activity): 121%
CC[C@@H](C)[C@@H](NC(=O)[C@@H](NC(=O)[C@@H](N)C(C)C)C(C)C)C(=O)N[C@@H](C)C(N)=O  inhibition (APP; amyloid aggregation, inhibitor, fluorescence; 2 µM, 24 h): 49.6%
Clc1ccc2c(c1)CCc1cccnc1C2=C1CCN(CC2CCC2)CC1  duration of complete antagonism (HRH1 (Homo sapiens, UniProt P35367); histamine-induced calcium response, antagonist; concentration not given, after washout of unbound compound, added: histamine): ≥ 2 h
COc1ccc(-n2nc(C(N)=O)c3c2C(=O)N(c2ccc(N4CCCCC4=O)cc2)CC3)cc1  peak plasma anti-factor Xa activity (F10; chromogenic anti-FXa; healthy humans, plasma; 2.5 mg twice daily, day 4 steady state, 0 to 12 h, geometric mean, LMWH-calibrated): 1.12 IU/mL
CC(C)[C@H](NC(=O)[C@H](CCCNC(=N)N)NC(=O)[C@@H](NC(=O)[C@H](CCC(N)=O)NC(=O)[C@@H](CCC(N)=O)NC(=O)[C@@H](NC(=O)[C@H](Cc1c[nH]c2ccccc12)NC(=O)[C@@H]1CCCN1C(=O)[C@@H]1CCCN1C(=O)[C@H](Cc1ccccc1)NC(=O)[C@H](CO)NC(=O)CNC(=O)[C@H](CCCNC(=N)N)NC(=O)[C@H](CCCNC(=N)N)NC(=O)[C@H](CCCNC(=N)N)NC(=O)[C@H](CCCNC(=N)N)NC(=O)[C@H](CCCNC(=N)N)NC(=O)[C@@H](N)CCCNC(=N)N)C(C)C)[C@@H](C)O)C(=O)O  kon (Disks large homolog 4, PDZ3 domain (Homo sapiens, UniProt P78352); binding, surface plasmon resonance; pH 7.5, 25 °C): 317000 M⁻¹ s⁻¹
CC(C(=O)O)c1ccc2c(c1)[nH]c1ccc(Cl)cc12 (stereo not drawn)  remaining activity (CASP4; 33 µM, added: LEHD substrate; baseline: solvent control): 12.2%

For quick reference, copied from above:
CNLM  farnesylation rate constant (Protein farnesyltransferase (Rattus norvegicus, UniProt Q02293+Q04631); substrate, stopped-flow fluorescence; peptide; pH 7.8, 25 °C, single turnover): 3.1 ± 0.3 s⁻¹
CC(C(=O)O)c1ccc2c(c1)[nH]c1ccc(Cl)cc12 (stereo not drawn)  remaining activity (CASP4; 33 µM, added: LEHD substrate; baseline: solvent control): 12.2%
O=Cc1ccc(O)cc1  lowest inhibitory concentration (UGT (rat); 4-MU glucuronidation, inhibitor; rat liver microsomes): ≥ 1 µM
O=S(=O)(O)c1cc(N=C=S)ccc1CCc1ccc(N=C=S)cc1S(=O)(=O)O  ID50 (SLC4A1 (Homo sapiens, UniProt P02730); chloride exchange; human red blood cells; pH 9.0, 0 °C, pH-induced inward chloride gradient, added: external chloride 60 mM): 0.72 µM and 0.3 µM and 0.4 µM and 0.41 µM
